Published values collected from several papers.
Compare with care: the assays were run in different laboratories. ± gives the spread as reported.
Target: Cytochrome P450 2C19 (CYP2C19, Homo sapiens, UniProt P33261)
UniProt P33261, sequence (whole entry, looked up): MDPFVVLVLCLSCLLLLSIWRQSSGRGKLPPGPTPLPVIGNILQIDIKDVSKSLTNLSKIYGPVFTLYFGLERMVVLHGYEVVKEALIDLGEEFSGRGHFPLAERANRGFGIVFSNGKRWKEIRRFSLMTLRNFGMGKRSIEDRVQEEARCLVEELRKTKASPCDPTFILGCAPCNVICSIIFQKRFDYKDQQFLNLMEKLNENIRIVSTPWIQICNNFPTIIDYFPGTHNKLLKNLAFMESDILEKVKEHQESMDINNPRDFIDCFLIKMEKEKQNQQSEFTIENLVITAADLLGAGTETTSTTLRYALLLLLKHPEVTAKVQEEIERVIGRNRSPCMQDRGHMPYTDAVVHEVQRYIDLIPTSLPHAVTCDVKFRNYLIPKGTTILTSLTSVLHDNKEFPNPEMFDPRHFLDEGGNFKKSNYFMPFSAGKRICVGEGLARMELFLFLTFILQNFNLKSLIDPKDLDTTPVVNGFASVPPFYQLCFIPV

| Structure (SMILES) | test | test system | setting | measurement | result |
| --- | --- | --- | --- | --- | --- |
| c1ccc(C2(CCNC3CCC4(SCCS4)c4ccccc43)CCOC3(CCCC3)C2)nc1 (stereo not shown) | enzyme activity, inhibitor | human, liver microsomes |  | IC50 | 24.3 µM |
| Cc1ccc(N2CC3CCC(C2)N3C)cc1C(=O)N[C@H](C)c1cc(-c2cnn(C)c2)nc2ccccc12 | enzyme activity |  |  | IC50 | > 50 µM |
| CCCCCc1cc(O)c2c(c1)OC(C)(C)C1CCC(C)=CC21 (single isomer, unassigned; (-)) | inhibitor, probe substrate | recombinant microsomes, HEK293 | added: omeprazole | Ki | 1.3 ± 0.42 µM |
| Cc1ccc2nc(C)c(C(=O)NCc3cccs3)n2c1 | inhibitor |  |  | IC50 | 25 µM |
| CCn1ccc(-c2cc(-c3cnn(C)c3)cc([C@@H](C)NC(=O)c3cc(OCCN(C)C)ccc3C)c2)n1 | enzyme activity, inhibitor | pooled human liver microsomes | 10 (unit not given) | IC50 | > 50 µM |
| COc1ccc(F)cc1S(=O)(=O)Nc1cnc2c(c1)C(=O)NCCO2 | enzyme activity, inhibitor | human, liver microsomes | with preincubation | IC50 | > 100 µM |
| CNc1nc(SC)nc2ccccc12 | inhibitor |  |  | IC50 | 22 µM |
| C[C@H](NCc1ccc(-c2ccc(C(F)(F)F)cc2)cc1)C(N)=O | enzyme activity, inhibitor, luciferase |  | pH 7.4 | IC50 | > 10 µM |
| CCc1ccc([C@@H]2C[C@H](C(F)(F)F)n3ncc(C(=O)NCc4ccc(OC)cc4)c3N2)cc1 | inhibitor |  |  | IC50 | 10 µM |
| C(#Cc1cncc(OC[C@@H]2CCN2)c1)c1ccccc1 | enzyme activity, inhibitor, fluorescence |  |  | IC50 | 1.12 µM |

Some of these lines once more:
| Structure (SMILES) | test | test system | setting | measurement | result |
| --- | --- | --- | --- | --- | --- |
| COc1ccc(F)cc1S(=O)(=O)Nc1cnc2c(c1)C(=O)NCCO2 | enzyme activity, inhibitor | human, liver microsomes | with preincubation | IC50 | > 100 µM |
